# Measurements pooled from the literature.
# Lines come from different studies, so protocols differ. ± marks the error that the study gave.
SMILES,test,test system,conditions,tissue uptake
OCc1cn(Cc2ccc(-c3noc(-c4ccc(OCC[18F])c(C(F)(F)F)c4)n3)cc2)nn1,,"female Lewis rat, spleen","intravenous, 30 min",1.36 ± 0.04 %ID/g
O=C([O-])CN1CCN(CC(=O)[O-])CCN(CC(=O)NCCc2ccc3c(c2)C2C=CCC2C(c2cc4c(cc2Br)OCO4)N3)CCN(CC(=O)[O-])CC1.[111In+3] (centres unmarked),,"mouse, Hec50 endometrial tumour, brain",0.5 h post injection,0.33 ± 0.01 %ID/g
CCCC[C@H](NC(=O)CNC(=O)CNC(=O)CN1CCN(CC(=O)O)CCN(CC(=O)O)CCN(CC(=O)O)CC1)C(=O)N[C@H]1CC(=O)NCCCC[C@@H](C(N)=O)NC(=O)[C@H](Cc2c[nH]c3ccccc23)NC(=O)[C@H](CCCNC(=N)N)NC(=O)[C@@H](Cc2ccccc2)NC(=O)[C@H](Cc2c[nH]cn2)NC1=O [copper-64 labelled],,"female C57 mouse, B16/F1 melanoma, tumor","intravenous, 0.037 MBq, 2 h",5.2 ± 1.28 %ID/g
CC(C)[C@H](NC(=O)[C@@H]1CCCN1C(=O)[C@H](CCCNC(=N)N)NC(=O)[C@H](CS)NC(=O)[C@H](Cc1c[nH]c2ccccc12)NC(=O)[C@H](CCCNC(=N)N)NC(=O)[C@@H](Cc1ccccc1)NC(=O)[C@H](Cc1c[nH]cn1)NC(=O)[C@H](CCC(=O)O)NC(=O)[C@H](CS)NC(=O)[C@H](CS)NC(=O)[C@@H]1CC(=O)N[C@@H](CCCNC(=N)N)C(=O)NCC(=O)N[C@@H](CC(=O)O)C(=O)N[C@H](Cc2ccc(O)cc2)C(=O)N1)C(N)=O [technetium-99m labelled],,"C57 mouse, female, B16/F1 melanoma, pancreas","intravenous, 0.037 MBq, 0.5 h",1.02 ± 0.52 %ID/g
CN1C(=O)[C@@H](Cc2ccc(O)c(I)c2)NC(=O)CNC(=O)[C@H](Cc2ccc3ccccc3c2)NC(=O)[C@H](CCCNC(=N)N)NC(=O)[C@H]1CCCNC(=O)c1ccc(CNC(=O)CN2CCN(CC(=O)O)CCN(CC(=O)O)CCN(CC(=O)O)CC2)cc1 [lutetium-177 labelled],measured: 177Lu radioactivity,"female CB-17 SCID mice, Daudi xenograft, pancreas","intravenous, 0.16 nmol per mouse, 1 h",0.4 ± 0.1 %ID/g
C[C@H](CN(C)Cc1ccccc1)NC(=O)c1ccc(-c2noc(C(F)(F)[18F])n2)cc1,PET imaging,"female Sprague-Dawley rats, hippocampus","intravenous, 1 min",2.37 ± 0.74 SUV
NC12CNCCNCC(NCc3ccc(CNC(=O)CCCC(=O)NCc4ccc(-c5nncnn5)cc4)cc3)(CNCCNC1)CNCCNC2.[64Cu+2],,"athymic nude mice SW1222 xenograft, muscle","4 h post injection, 24 h accumulation interval, together with: huA33-TCO pretargeting",0.37 ± 0.07 %ID/g
CCCC[C@H](NC(=O)CNC(=O)CNC(=O)CN1CCN(CC(=O)O)CCN(CC(=O)O)CC1)C(=O)N[C@H]1CC(=O)NCCCC[C@@H](C(N)=O)NC(=O)[C@H](Cc2c[nH]c3ccccc23)NC(=O)[C@H](CCCNC(=N)N)NC(=O)[C@@H](Cc2ccccc2)NC(=O)[C@H](Cc2c[nH]cn2)NC1=O [copper-64 labelled],,"female C57 mouse, B16/F1 melanoma, pancreas","intravenous, 0.037 MBq, 2 h",0.29 ± 0.13 %ID/g
CN(C)c1ccc(-c2nc3ccc(OCCCCCN4CCN5CCN(CC4)CC(=O)[O][Al]([18F])[O]C(=O)C5)cc3s2)cc1,,"ICR mouse, muscle","intravenous, 2 min",3.28 ± 0.47 %ID/g
CCCC[C@@H]1NC(=O)[C@@H](NC(=O)[C@H](CCC(=O)O)NC(=O)CNC(=O)CN2CCN(CC(=O)O)CCN(CC(=O)O)CCN(CC(=O)O)CC2)CCCCNC(=O)C[C@@H](C(N)=O)NC(=O)[C@H](C(C)C)NC(=O)[C@@H]2CCCN2C(=O)[C@H](CCCNC(=N)N)NC(=O)CNC(=O)[C@H](Cc2c[nH]c3ccccc23)NC(=O)[C@H](CCCNC(=N)N)NC(=O)[C@@H](Cc2ccccc2)NC(=O)[C@H](Cc2c[nH]cn2)NC(=O)[C@H](CCC(=O)O)NC1=O [gallium-67 labelled],,"C57 mice with B16/F1 melanoma, pancreas","intravenous, 0.037 MBq, 4 h",0.07 ± 0.05 %ID/g
CCCC[C@H](NC(=O)CNC(=O)CNC(=O)CN1CCN(CC(=O)O)CCN(CC(=O)O)CC1)C(=O)N[C@H]1CC(=O)NCCCC[C@@H](C(N)=O)NC(=O)[C@H](Cc2c[nH]c3ccccc23)NC(=O)[C@H](CCCNC(=N)N)NC(=O)[C@@H](Cc2ccccc2)NC(=O)[C@H](Cc2c[nH]cn2)NC1=O [gallium-67 labelled],,"female C57 mice, B16/F1 melanoma, liver","intravenous, 0.037 MBq, 0.5 h",1.28 ± 0.14 %ID/g

# Repeated from above:
SMILES,test,test system,conditions,tissue uptake
CN1C(=O)[C@@H](Cc2ccc(O)c(I)c2)NC(=O)CNC(=O)[C@H](Cc2ccc3ccccc3c2)NC(=O)[C@H](CCCNC(=N)N)NC(=O)[C@H]1CCCNC(=O)c1ccc(CNC(=O)CN2CCN(CC(=O)O)CCN(CC(=O)O)CCN(CC(=O)O)CC2)cc1 [lutetium-177 labelled],measured: 177Lu radioactivity,"female CB-17 SCID mice, Daudi xenograft, pancreas","intravenous, 0.16 nmol per mouse, 1 h",0.4 ± 0.1 %ID/g
CC(C)[C@H](NC(=O)[C@@H]1CCCN1C(=O)[C@H](CCCNC(=N)N)NC(=O)[C@H](CS)NC(=O)[C@H](Cc1c[nH]c2ccccc12)NC(=O)[C@H](CCCNC(=N)N)NC(=O)[C@@H](Cc1ccccc1)NC(=O)[C@H](Cc1c[nH]cn1)NC(=O)[C@H](CCC(=O)O)NC(=O)[C@H](CS)NC(=O)[C@H](CS)NC(=O)[C@@H]1CC(=O)N[C@@H](CCCNC(=N)N)C(=O)NCC(=O)N[C@@H](CC(=O)O)C(=O)N[C@H](Cc2ccc(O)cc2)C(=O)N1)C(N)=O [technetium-99m labelled],,"C57 mouse, female, B16/F1 melanoma, pancreas","intravenous, 0.037 MBq, 0.5 h",1.02 ± 0.52 %ID/g
